# Assay results collected from several papers.
# Each line is one published result; not all experiments were run side by side. ± gives the spread as reported.
# MMP9: Matrix metalloproteinase-9 (MMP9, Homo sapiens, UniProt P14780)
SMILES,target,test,system,setting,how to read,measurement,value
CC(C)C[C@H](NC(=O)CNC(=O)[C@H](CC(C)C)NC(=O)[C@@H]1CCCN1C(=O)OCC1c2ccccc2-c2ccccc21)C(=O)N[C@@H](CCCNC(=N)N)C(=O)N[C@@H](CO)C(=O)N[C@@H](CCCCN)C(=O)O,MMP9,"substrate, HPLC",,"500 µM, 72 h, pH 7.5, 37 °C",,hydrolysis product,57%
CN(C)c1ncnc2c1ncn2[C@@H]1O[C@@H]2COP(=O)(O)O[C@H]3[C@@H](O)[C@H](n4cnc5c(N(C)C)ncnc54)O[C@@H]3COP(=O)(O)O[C@H]2[C@H]1O,"ydaO riboswitch, Bacillus subtilis, wild type",competition gel shift,,"up to 200 µM, together with: c-di-AMP",,binding,no binding
O=C(CCCC[C@@H]1SC[C@@H]2NC(=O)N[C@@H]21)NCCCNC(=O)Cn1nc(-c2ccccc2)c2c(Cl)c(-c3ccccc3)nnc21,"60 kDa heat shock protein, mitochondrial (Homo sapiens, UniProt P10809)",affinity purification mass spectrometry,,"10 µM, unit not given",relative to: competitor-blocked control,enrichment,28
"CC(=O)C12NC(C)(C)CC1(C)C(=O)C1=C2c2c(c3c4n2C(C)(C)CC2=C4C4(CC(C)(C)NC(C)(C4)C2=O)CC3(C)C)C(=O)C(C)(C)N1 (single isomer, unassigned; (+))","Kappa-type opioid receptor (OPRK1, Homo sapiens, UniProt P41145)","agonist, cAMP",CHO,concentration not given,,agonist activity,inactive
COc1cc(F)c(C(C)C)cc1C1=C(CN2C(=O)O[C@H](c3cc(C(F)(F)F)cc(C(F)(F)F)c3)[C@@H]2C)CC(C)(C)CC1,"Cholesteryl ester transfer protein (Homo sapiens, UniProt P11597)",enzyme activity,"healthy male subjects, plasma","oral, 50 mg single dose",relative to: baseline,maximum inhibition,66.9%
Cc1cc(N2CC[C@@](C#N)(C3(C)CC3)C2=O)cc(C(=O)NCc2cc(F)cc(-c3cnn(C)c3)c2)n1,"Proline--tRNA ligase (Plasmodium falciparum, UniProt Q8I5R7)",thermal shift,,together with: L-proline 2 mM,,melting temperature,81.5 °C
O=C(O)Cc1ccc(O)cc1,"p-hydroxyphenylacetate 3-hydroxylase, reductase component (C1-hpah, Acinetobacter baumannii, UniProt Q6Q271)","NADH oxidation, activator",,"100 µM, pH 7, together with: 50 µM NADH",,turnover rate increase,~12 fold
CC[C@H](C)[C@H](NC(=O)[C@H](C)NC(=O)[C@H](CCCCN)NC(=O)[C@@H](NC(=O)[C@H](CCC(=O)O)NC(=O)[C@H](CCC(=O)O)NC(=O)[C@H](CCC(=O)O)NC(=O)[C@H](CO)NC(=O)[C@H](CC(C)C)NC(=O)[C@H](CC(=O)O)NC(=O)[C@H](CC(C)C)NC(=O)CNC(=O)[C@H](CCCNC(=N)N)NC(=O)[C@H](CC(C)C)NC(=O)[C@H](CO)NC(=O)CNC(=O)CNC(=O)CNC(=O)CCCC[C@@H]1SC[C@@H]2NC(=O)N[C@@H]21)C(C)C)C(=O)N[C@@H](CC(C)C)C(=O)N[C@@H](CC(=O)O)C(=O)N[C@@H](CCC(=O)O)C(=O)N[C@H](C(=O)N[C@H](C(=O)N[C@@H](CCCCN)C(=O)N[C@@H](CC(=O)O)C(=O)O)C(C)C)[C@@H](C)CC,Fab B11 antibody (human),"binding, biolayer interferometry",,,relative to: alanine mutant over wild type,Kd ratio,2.5
CCOc1cc(/C=c2\sc3n(c2=O)C(c2ccccc2OC)C(C(C)=O)=C(C)N=3)ccc1O (centres unmarked),"Cyclin-dependent kinase 7, with cyclin H (CDK7, Homo sapiens, UniProt P50613)","binding to cyclin H, co-immunoprecipitation",HEK293T transfected,up to 20 µM,,activity,inactive
[3H]C([3H])([3H])c1cnccc1CN1C[C@@H](c2cc(F)c(F)c(F)c2)CC1=O,"Synaptic vesicle glycoprotein 2A (SV2A, Homo sapiens, UniProt Q7L0J3)","radioligand binding, autoradiography","human, post-mortem temporal lobe",2 nM,,total binding,111 fmol/mg
Cc1ncsc1-c1ccc([C@@H]2CCCCCCNC(=O)C[C@@H]3N=C(c4ccc(cc4)OCCCCCC(=O)N[C@@H](C(C)(C)C)C(=O)N4C[C@H](O)C[C@H]4C(=O)N2)c2c(sc(C)c2C)-n2c(C)nnc23)cc1,"Bromodomain-containing protein 4, short isoform (BRD4, Homo sapiens, UniProt O60885)","degrader, immunoblotting",PC-3,"100 nM, 2 h, short isoform",,degradation,86%
Nc1ccn([C@H]2O[C@@H](COP(=O)(O)O)[C@H](O)[C@@H]2O)c(=O)n1,"UMP-CMP kinase (Homo sapiens, UniProt P30085)","enzyme activity, substrate, coupled spectrophotometric",,,relative to: D-CMP,relative Vmax,0.054 ± 0.001%
[11CH3]Nc1ccc(-c2nc3ccc(O)cc3o2)cn1,"Amyloid-beta precursor protein (APP, Homo sapiens, UniProt P05067)","binding, PET","Alzheimer's disease patients, prefrontal cortex",unit not given,relative to: control subjects,effect size of DVR,4.37
O=C(CCCCCCS)Nc1ccccc1,"Histone deacetylase 8 (HDAC8, Homo sapiens, UniProt Q9BY41)",isothermal titration calorimetry,,"concentration not given, pH 7.5, 25 °C",,binding enthalpy (ΔH),-4.5 ± 0.3 kcal/mol
CC(C)[C@H](C(=O)Nc1ncc(F)s1)c1ccc(Cl)cc1,"Free fatty acid receptor 2, with β-arrestin 2 (FFAR2, Homo sapiens, UniProt O15552)","β-arrestin-2 recruitment, NanoBiT",cells expressing human FFAR2,"concentration not given, together with: acetate at fixed concentrations",,potency and slope change,increased
C=CC(C)(C)OC[C@H]1O[C@H](O[C@@H]2C3=C([C@H](C)COC(C)=O)C[C@H](O)[C@]3(C)/C=C3/[C@@H](COC)CC[C@H]3[C@@H](C)[C@H]2O)[C@H](O)[C@@H](OC(C)=O)[C@@H]1O,"14-3-3 protein gamma, with p65 peptide (YWHAG, Homo sapiens, UniProt P61981)","binding, 2D fluorescence anisotropy titration",,"range over 0 to 250 µM, together with: 100 nM peptide",,cooperativity factor,5
CC[C@H](C)[C@H](NC(=O)[C@H](Cc1ccccc1)NC(=O)[C@H](CCC(=O)O)NC(=O)[C@H](CCCCN)NC(=O)[C@H](C)NC(=O)[C@H](C)NC(=O)[C@H](CCC(N)=O)NC(=O)CNC(=O)[C@H](CCC(=O)O)NC(=O)[C@H](CC(C)C)NC(=O)[C@H](Cc1ccc(O)cc1)NC(=O)[C@H](CO)NC(=O)[C@H](CO)NC(=O)[C@@H](NC(=O)[C@H](CC(=O)O)NC(=O)[C@H](CO)NC(=O)[C@@H](NC(=O)[C@H](Cc1ccccc1)NC(=O)[C@@H](NC(=O)CNC(=O)[C@@H](N)CCC(=O)O)[C@@H](C)O)[C@@H](C)O)C(C)C)C(=O)N[C@@H](C)C(=O)N[C@@H](Cc1c[nH]c2ccccc12)C(=O)N[C@@H](CC(C)C)C(=O)N[C@H](C(=O)N[C@@H](CCCCN)C(=O)NCC(=O)N[C@@H](CCCNC(=N)N)C(N)=O)C(C)C,"Glucagon-like peptide 1 receptor (Rattus norvegicus, UniProt P32301)",agonist,INS-1E,"concentration not given, compound alone",,cAMP accumulation,inactive
[3H]C(CNC(=O)c1ccc(-c2ccsc2)cc1)C([3H])CN1CCN(c2ccccc2OCCF)CC1 (centres unmarked),"D(3) dopamine receptor (Drd3, Rattus norvegicus, UniProt P19020)","radioligand, saturation binding",rat nucleus accumbens,"30 min, 37 °C",,Bmax,99.8 ± 16 fmol/mg protein
CC(C)C[C@H](NC(=O)[C@H](CC(C)C)NC(=O)[C@H](CCC(=O)O)NC(=O)[C@@H](N)CS)C(=O)O,"PPO3 (Agaricus bisporus, UniProt C7FF04)","enzyme activity, inhibitor",,50 µM,,remaining activity,76.7%
CN(C)CC(=O)N(c1ccc(F)cc1)c1ccc(F)cc1,"Proteasome subunit alpha type-2/Proteasome subunit alpha type-6, 20S proteasome (Homo sapiens, UniProt P25787+P60900)","proteolysis, activator, fluorogenic peptide",purified 20S proteasome,"together with: Suc-LLVY-AMC, Z-LLE-AMC, Boc-LRR-AMC",,EC200,> 30 µM
COc1ccc(-c2cc(C(F)(F)F)nc(S(=O)(=O)CCCC(=O)Nc3ccc(F)cc3F)n2)cc1OC,"Vasopressin V2 receptor (AVPR2, Homo sapiens, UniProt P30518)","cAMP accumulation, positive allosteric modulator",CHO-K1 overexpressing AVPR2,together with: vasopressin at EC20,,Emax,26 ± 11%
COc1ccc(NC(=O)CCCc2ccccc2)c(C)n1,"Carboxylesterase 3 (CES3, Homo sapiens, UniProt Q6UWW8)",substrate,,"50 µM, pH 8, 37 °C, enzyme purity 3%",,specific activity,< 1 pmol/min/µg
C/C(=N\OCCN1CCCCC1)c1cccc(C(F)(F)F)c1,"Sigma non-opioid intracellular receptor 1, with BiP (SIGMAR1, Homo sapiens, UniProt Q99720)","agonist, NanoBiT",HEK293,"10 µM, 16 h",,σ1R-BiP interaction,increased
C=Cc1c(C)c2cc3nc(c4c5[nH]c(cc6nc(cc1[nH]2)C(C)=C6CC)c(C)c5C(=O)C4)[C@@H](CCC(=O)NCC(=O)N1CCC[C@H]1C(=O)N[C@@H](CC(C)C)C(=O)NCC(=O)N[C@@H](Cc1ccccc1)C(=O)N[C@@H](CCCNC(=N)N)C(=O)N[C@H](C(=O)NCC(=O)N[C@@H](CCCCNC(=O)CCCN(C)c1ccc(/N=N/c2ccc4nc5ccc(N(CC)CC)cc5[n+](-c5ccccc5)c4c2)cc1)C(N)=O)C(C)C)[C@@H]3C,MMP9,"cleavage, substrate",,"concentration not given, 24 h, 37 °C",,fluorescence activation,35%
CNc1ccccc1C(=O)O[C@H]1C[C@H](n2cnc3c(N)ncnc32)O[C@@H]1COP(=O)(O)OP(=O)(O)O,"Unconventional myosin-Va (Gallus gallus, UniProt Q02440, D297C/G292C/I296C/S293C/V295G)",stopped-flow FRET,,"25 °C, together with: MgCl2 2 mM",,pocket forward rate constant,1.33 ± 0.91 s⁻¹
CCC(NC(=O)c1cccc(-c2ccc(C)nc2N)c1)c1ccnn1C (centres unmarked),"DNA dC->dU-editing enzyme APOBEC-3B, C-terminal domain (Homo sapiens, UniProt Q9UH17)","binding, 1H CPMG NMR",,20 µM protein,,signal attenuation,33.7 ± 3.4%
